Published values from different studies.
UniProt P07948, sequence (whole entry, looked up): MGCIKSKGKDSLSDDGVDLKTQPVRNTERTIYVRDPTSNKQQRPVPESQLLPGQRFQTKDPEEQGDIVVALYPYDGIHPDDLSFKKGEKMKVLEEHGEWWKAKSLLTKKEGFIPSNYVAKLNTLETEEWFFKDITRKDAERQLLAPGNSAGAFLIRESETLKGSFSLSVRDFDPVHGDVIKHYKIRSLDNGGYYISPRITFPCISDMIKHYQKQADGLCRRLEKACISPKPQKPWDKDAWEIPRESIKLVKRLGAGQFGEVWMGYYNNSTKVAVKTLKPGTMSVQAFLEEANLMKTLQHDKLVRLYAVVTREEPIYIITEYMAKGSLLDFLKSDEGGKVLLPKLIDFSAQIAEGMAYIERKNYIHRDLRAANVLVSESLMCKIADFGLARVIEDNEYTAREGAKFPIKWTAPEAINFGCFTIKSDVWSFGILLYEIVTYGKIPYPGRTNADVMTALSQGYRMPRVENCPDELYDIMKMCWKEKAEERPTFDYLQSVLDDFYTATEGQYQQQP
UniProt P18089, sequence (whole entry, looked up): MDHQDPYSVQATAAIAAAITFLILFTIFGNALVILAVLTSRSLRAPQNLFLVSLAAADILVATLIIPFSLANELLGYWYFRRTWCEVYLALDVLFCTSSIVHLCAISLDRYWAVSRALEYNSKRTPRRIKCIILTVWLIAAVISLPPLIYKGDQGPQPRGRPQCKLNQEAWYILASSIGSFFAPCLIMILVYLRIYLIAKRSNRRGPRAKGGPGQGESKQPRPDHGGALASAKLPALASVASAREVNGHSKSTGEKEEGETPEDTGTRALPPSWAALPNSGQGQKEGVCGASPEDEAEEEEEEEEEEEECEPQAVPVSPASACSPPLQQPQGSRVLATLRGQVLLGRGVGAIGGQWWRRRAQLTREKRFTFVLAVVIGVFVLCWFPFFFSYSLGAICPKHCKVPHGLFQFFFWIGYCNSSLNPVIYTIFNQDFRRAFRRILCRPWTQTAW
UniProt P06493, sequence (whole entry, looked up): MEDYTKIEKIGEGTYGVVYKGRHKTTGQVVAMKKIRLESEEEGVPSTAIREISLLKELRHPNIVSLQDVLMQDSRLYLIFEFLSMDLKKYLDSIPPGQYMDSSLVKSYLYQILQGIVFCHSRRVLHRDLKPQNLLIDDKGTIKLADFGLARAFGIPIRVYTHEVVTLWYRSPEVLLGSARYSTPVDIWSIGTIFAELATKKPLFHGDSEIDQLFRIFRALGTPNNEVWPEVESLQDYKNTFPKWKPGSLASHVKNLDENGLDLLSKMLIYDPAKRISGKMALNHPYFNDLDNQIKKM
UniProt Q92630, sequence (whole entry, looked up): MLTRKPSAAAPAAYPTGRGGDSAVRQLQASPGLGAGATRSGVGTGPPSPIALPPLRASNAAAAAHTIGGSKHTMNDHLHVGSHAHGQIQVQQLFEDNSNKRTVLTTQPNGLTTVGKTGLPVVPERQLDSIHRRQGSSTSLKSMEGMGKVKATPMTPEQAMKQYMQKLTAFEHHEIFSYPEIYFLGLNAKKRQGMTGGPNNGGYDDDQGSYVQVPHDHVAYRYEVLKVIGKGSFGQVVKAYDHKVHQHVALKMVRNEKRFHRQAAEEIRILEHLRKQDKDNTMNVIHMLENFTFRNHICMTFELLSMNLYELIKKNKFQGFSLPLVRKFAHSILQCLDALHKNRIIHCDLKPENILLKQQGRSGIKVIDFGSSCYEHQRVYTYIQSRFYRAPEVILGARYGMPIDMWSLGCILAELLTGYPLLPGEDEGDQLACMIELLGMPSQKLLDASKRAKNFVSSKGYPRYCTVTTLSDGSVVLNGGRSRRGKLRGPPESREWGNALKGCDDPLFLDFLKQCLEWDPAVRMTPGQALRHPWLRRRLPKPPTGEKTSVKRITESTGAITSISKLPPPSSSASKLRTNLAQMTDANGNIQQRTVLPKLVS

Compound	target	test	system	setting	inhibition [%]
CN1CCN(c2cc(-c3ccncc3)c(-c3ccc4ccccc4c3)nn2)CC1	Melanocortin receptor 4 (MC4R, Homo sapiens, UniProt P32245)	–	–	10 µM	11.1
C[N+]1(C)CCOC(O)(c2ccc(-c3ccc(C4(O)C[N+](C)(C)CCO4)cc3)cc2)C1 (centres unmarked)	Genome polyprotein, NS3 helicase domain (Hepatitis C virus genotype 1b, UniProt Q9WMX2)	DNA binding, inhibitor	hepatitis C virus	100 µM, added: Cy5-dT15 DNA	3
COc1ccc(N2C(=O)N(c3c(C)cccc3Cl)Cc3cnc(Nc4ccc(C5CCN(C)CC5)cc4OC)nc32)nc1	Dual specificity tyrosine-phosphorylation-regulated kinase 2 (DYRK2, Homo sapiens, UniProt Q92630)	kinase activity	–	0.5 µM	4.54
COc1cc(Nc2ncc(F)c(Nc3ccc4c(n3)NC(=O)C(C)(C)O4)n2)cc(OC)c1OC	Tyrosine-protein kinase Lyn (LYN, Homo sapiens, UniProt P07948)	KINOMEscan	–	10 µM	98
O=C(Nc1cccnn1)N1CCC(=Cc2cccc(Oc3ccc(C(F)(F)F)cn3)c2)CC1	Alpha-2B adrenergic receptor (ADRA2B, Homo sapiens, UniProt P18089)	binding	–	10 µM, added: [3H]rauwolscine	13
FC(F)(F)c1cccc(Nc2nc(NCCOc3ccccc3)nc3[nH]cnc23)c1	Cyclin-dependent kinase 1, with cyclin B (CDK1, Homo sapiens, UniProt P06493)	Z'-LYTE or Adapta	–	5 µM	6
CC(=O)NC[C@H]1[C@H](O)[C@H](O)[C@@H]2[C@H](O)C[C@@H](CO)N21	Spodoptera litura β-N-acetylglucosaminidase	–	crude enzyme	0.0125 µM, run 1, added: p-nitrophenyl GlcNAc	49.5
O=C(Nc1cnccc1Cl)N1CCN(Cc2ccc3c(c2)OC(F)(F)O3)CC1	KATP channel, hamster	binding	–	10 µM, added: [3H]glyburide	14

A few entries again:
Compound	target	test	system	setting	inhibition [%]
CN1CCN(c2cc(-c3ccncc3)c(-c3ccc4ccccc4c3)nn2)CC1	Melanocortin receptor 4 (MC4R, Homo sapiens, UniProt P32245)	–	–	10 µM	11.1
